# Experimental data from different studies.
# Each line is one published result; not all experiments were run side by side. ± gives the spread as reported. Ends that are not written are not given here.
# B1: UGT1A9 (Homo sapiens, UniProt O60656); chain GKLLVVPMDGSHWFTMRSVVEKLILRGHEVVVVMPEVSWQLGRSLNCTVKTYSTSYTLEDLDREFKAFAHAQWKAQVRSIYSLLMGSYNDIFDLFFSNCRSLFKDKKLVEYLKESSFDAVFLDPFDNCGLIVAKYFSLPSVVFARGILCHYLEEGAQCPAPLSYVPRILLGFSDAMTFKERVRNHIMHLEEHLLCHRFFKNALEIASEILQTPVTEYDLYSHTSIWLLRTDFVLDYPKPVMPNMIFIGGINCHQGKPLPMEFEAYINASGEHGIVVFSLGSMVSEIPEKKAMAIADALGKIPQTVLWRYTGTRPSNLANNTILVKWLPQNDLLGHPMTRAFITHAGSHGVYESICNGVPMVMMPLFGDQMDNAKRMETKGAGVTLNVLEMTSEDLENALKAVINDKSYKENIMRLSSLHKDRPVEPLDLAVFWVEFVMRHKGAPHLRPAAHDLTWYQYHSLDVIGFLLAVVLTVAFITFKCCAYGYRKCLGKKGRVKKAHKSKTH
# B2: enzyme (Bacillus pumilus, UniProt A8FFI9); chain EARSIAWSVDEFFKNREGTFVIQEVKEKSPWVYNKKRAKERFAPQSTFKVANALIGLQTGAVRDEYDIKYWDGVKREIDNWNRDHTLGSGMRDSVVWYYQAMARDIGEERMNHWVKAIHYGNKDISGGIDQFWLSSTLRISPIEQVRFLKQLYEETLPFDLKNMRTVKRMMVQEEEKHATLYGKTGSGSDIGWYVGFIKHEHKTYILATNIKGTGIEAKDITYRILKKYHLMEASV
# Sequence of UniProt Q18B70 (whole entry, looked up): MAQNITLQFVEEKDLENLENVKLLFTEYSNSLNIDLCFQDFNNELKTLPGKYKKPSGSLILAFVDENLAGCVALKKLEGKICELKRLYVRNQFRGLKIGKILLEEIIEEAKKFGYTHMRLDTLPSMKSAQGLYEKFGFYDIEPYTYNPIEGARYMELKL
Molecule,target or system,assay,system,conditions,scale,endpoint,result
B1 (UGT1A9),O=C(/C=C/c1ccc(O)cc1)CC(=O)/C=C/c1ccc(O)cc1,steady-state kinetics,,"pH 7.4, 37 °C",,Vmax/Km,8 µL/min/mg
CC(C)[C@H](NC(=O)[C@@H]1CCCN1C(=O)[C@H](CCCNC(=N)N)NC(=O)[C@H](CS)NC(=O)[C@H](Cc1c[nH]c2ccccc12)NC(=O)[C@H](CCCNC(=N)N)NC(=O)[C@@H](Cc1ccccc1)NC(=O)[C@H](Cc1c[nH]cn1)NC(=O)[C@H](CCC(=O)O)NC(=O)[C@H](CS)NC(=O)[C@H](CS)NC(=O)[C@H](CCCCN)NC(=O)[C@@H]1CC(=O)N[C@@H](CCCNC(=N)N)C(=O)N[C@@H](C)C(=O)N[C@@H](CC(=O)O)C(=O)N[C@H](Cc2ccc(O)cc2)C(=O)N1)C(N)=O [technetium-99m labelled],,,"C57 mice, intestines","iv, 0.037 MBq, 4 h",,tissue uptake,1.55 ± 0.42 %ID
COc1cccc2c1C(=O)c1c(O)c3c(c(O)c1C2=O)C[C@@](O)(C(=O)CO)C[C@@H]3O[C@H]1C[C@H](NC(=O)[C@@H]2CCCN2C(=O)CN)[C@H](O)[C@H](C)O1,,,"mouse, E0771 tumour-bearing, tumor","intravenous, 92 µmol/kg PhAc-ALGP-Dox",,Cmax,20.9 µM
"protein (Sinorhizobium meliloti, UniProt Q92LZ4)",O=CC(=O)O,steady-state kinetics,,"pH 7.5, 25 °C, NaCl 150 mM, together with: NADPH 0.4 mM",,K0.5,80000 µM
"protein (Clostridioides difficile, UniProt Q18B70)",CC(=O)SCCNC(=O)CCNC(=O)[C@H](O)C(C)(C)COP(=O)(O)OP(=O)(O)OC[C@H]1O[C@@H](n2cnc3c(N)ncnc32)[C@H](O)[C@@H]1OP(=O)(O)O,steady-state kinetics,,"pH 8, 37 °C, together with: L-Thr 10 mM, AcCoA 0-2 mM",,K0.5,248 µM
B2 (enzyme),CC(C)(O/N=C(\C(=O)N[C@@H]1C(=O)N2C(C(=O)[O-])=C(C[n+]3ccccc3)CS[C@H]12)c1csc(N)n1)C(=O)O,steady-state kinetics,,pH 7,,kcat,> 0.9 s⁻¹
FITC-labelled amyloid β(1-40),"bEnd.3, claudin-5 and occludin siRNA","apical to basolateral, Transwell",,"10 µM, 2 h, 37 °C, 72 h after siRNA",reference: non-targeting siRNA,permeability,increased
"KCNTATCATQRLANFLVHSSNNFGPILPPTNVGSNTY (Pramlintide; not fully specified (C-terminus, bridges); cysteine pairing not given here; sequence looked up)",,refers to: Nausea,"peptide, obese or overweight humans","concentration not given, ITT population",,adverse event incidence,14.3%
RXRRXRRXRRXRXB (PMO conjugate),pLuc705,MTT,peptide,"2 to 60 µM, 24 h, 10% serum, D-arginine variant",,viability,no effect

# Some of these lines once more:
Molecule,target or system,assay,system,conditions,scale,endpoint,result
"KCNTATCATQRLANFLVHSSNNFGPILPPTNVGSNTY (Pramlintide; not fully specified (C-terminus, bridges); cysteine pairing not given here; sequence looked up)",,refers to: Nausea,"peptide, obese or overweight humans","concentration not given, ITT population",,adverse event incidence,14.3%
